Experimental data gathered from unrelated publications.
Parts stem from different laboratories: compare values within a part only. Substitutions count along the parent as printed.

Study 1
Target: CCND2, cyclin fold, Cln2 fusion (human)
Method: yeast growth competition, sequencing
Matrix: yeast
Notes: weak parent motif
Relative to: not given
Reading: higher = stronger binding
Parent: PPP1R3F docking peptide (human); VAPRRVLFADEAL
`D10A` — result for “normalised enrichment score”: 0.143.
`R4A` — result for “normalised enrichment score”: 0.0514.
`V1A` — result for “normalised enrichment score”: -0.016.
`R5K`: “normalised enrichment score” -0.178.
`E11A`: “normalised enrichment score” 0.313.
Under “normalised enrichment score”, `L13A` is recorded as -0.211.

Study 2
Target: Hepatocyte nuclear factor 3-beta, forkhead domain (FOXA2, Homo sapiens, UniProt Q9Y261, residues 142-269)
Method: protein-binding microarray
Form: double-stranded DNA, one strand shown
Matrix: in vitro
Tested at: not given
Notes: k-mer, scored over probes, only values ≥0.25
Reading: higher = stronger binding
Construct (chain): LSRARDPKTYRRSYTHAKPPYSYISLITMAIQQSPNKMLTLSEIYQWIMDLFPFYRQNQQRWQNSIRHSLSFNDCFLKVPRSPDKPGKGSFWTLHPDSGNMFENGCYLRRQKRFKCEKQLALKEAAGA
`CTTATTAC` has an E-score of 0.26.
The E-score of `ACTATCTA` is reported as 0.363.
For `ATGATGTA`, the E-score was 0.312.
For `ATACAACG`, the E-score was 0.296.
`CAATTTAA` has an E-score of 0.261.
With `TATGATCA` the E-score was 0.257.
The E-score of `CGATAACA` is reported as 0.263.
`GTAATCAA` has an E-score of 0.3.
`AGACATAA` has an E-score of 0.301.
The E-score of `ACAACCAT` is reported as 0.404.
For `ACAAGTAG`, the E-score was 0.266.
With `CAATACAC` the E-score was 0.326.
The E-score of `GTGATTAA` is reported as 0.263.
`CTTAACAC` gave an E-score of 0.295.
The E-score of `AAACACAA` is reported as 0.324.
For `ATTATATA`, the E-score was 0.348.
The E-score of `CACAACTA` is reported as 0.278.
For `GTGAATAA`, the E-score was 0.265.
For `ATAGGATA`, the E-score was 0.291.
`TATCTACA` has an E-score of 0.365.
For `AAGCATAT`, the E-score was 0.313.
The E-score of `AATATCGA` is reported as 0.323.

Study 3
Target: Interferon regulatory factor 3, full length, phosphomimetic (IRF3, Homo sapiens, UniProt Q14653, residues 1-427, S386D/S396D/S398D/S402D/T404D/S405D)
Method: protein-binding microarray
Form: double-stranded DNA, one strand shown
Matrix: in vitro
Tested at: 2540 nM top
Notes: 60-bp whole probe
Together with: salmon DNA 0.4 mg/ml
Relative to: random background probes
Reading: higher = stronger binding
All sequences stand within: GCCTAGCAC … GTCTTGATTCGCTTGACGCTGCTG
Construct (chain): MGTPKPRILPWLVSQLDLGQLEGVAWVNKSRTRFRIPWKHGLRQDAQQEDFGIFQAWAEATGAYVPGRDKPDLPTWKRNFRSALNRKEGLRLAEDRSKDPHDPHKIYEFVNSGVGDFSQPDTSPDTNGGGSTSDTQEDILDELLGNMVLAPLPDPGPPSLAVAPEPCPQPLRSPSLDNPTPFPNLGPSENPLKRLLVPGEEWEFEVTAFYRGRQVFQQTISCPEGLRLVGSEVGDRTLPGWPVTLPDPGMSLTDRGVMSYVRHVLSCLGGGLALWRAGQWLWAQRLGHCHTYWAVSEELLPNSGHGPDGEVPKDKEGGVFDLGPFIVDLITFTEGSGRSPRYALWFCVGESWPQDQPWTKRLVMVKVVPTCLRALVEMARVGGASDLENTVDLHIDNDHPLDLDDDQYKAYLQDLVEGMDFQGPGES
`TTATGACTGCTTCTCCTTTAGTGCTAG` — result for “fitted relative affinity”: 0.107 z-score.
Under “fitted relative affinity”, `GTCGGTATCGGTATCGGGACGTGCTAG` is recorded as 5.96 z-score.
`TTAGATATCAGTCTCGAATAGTGCTAG`: “fitted relative affinity” 1.25 z-score.
`GACGGTATCGGGTTTCGGAACGTGCTA`: “fitted relative affinity” 4.66 z-score.
For `GACGGCATCGGGTATCGGGACGTGCTA`, “fitted relative affinity” read -0.617 z-score.
For `GACGATATCAGACTGGAGCCGTGCTAG`, “fitted relative affinity” read 0.104 z-score.
For `TTAGAACTGGGGACTGGATTGGTGCTA`, “fitted relative affinity” read -0.809 z-score.
Under “fitted relative affinity”, `TGCCCTCTAACTTCCCAATGGTGCTAG` is recorded as -0.0369 z-score.
For `CCCATTCTGAATTCGAATGCGTGCTAG`, “fitted relative affinity” read 2.65 z-score.
`TTAGATATGAGTTTCGATTAGTGCTAG` — result for “fitted relative affinity”: 2.47 z-score.
For `AGGTTGATGGCTCTCTGGACGTGCTAG`, “fitted relative affinity” read -0.834 z-score.
Under “fitted relative affinity”, `GACGGTCTCCTACTGCGGACGTGCTAG` is recorded as 1.23 z-score.
`GACAGTATCCTACTGCTGACGTGCTAG` — result for “fitted relative affinity”: 3.5 z-score.
`TTACGTTTCCTACTGCTTTAGTGCTAG` — result for “fitted relative affinity”: 3.9 z-score.
`GACGGTTTAGGTTTCGGGACGTGCTAG` — result for “fitted relative affinity”: 3.34 z-score.
For `TTAGAACTGAGACTGGATGAGTGCTAG`, “fitted relative affinity” read -0.411 z-score.
Under “fitted relative affinity”, `AACGGTCTCGGACTGGGGACGTGCTAG` is recorded as -0.0328 z-score.
Under “fitted relative affinity”, `TCACCTCTGTCATTTTCACTGTGCTAG` is recorded as 0.521 z-score.
For `TTAGCTCTCAGTATCGATTAGTGCTAG`, “fitted relative affinity” read 0.816 z-score.
`GACGGTTTCCTGTTCCTGACGTGCTAG`: “fitted relative affinity” 4.59 z-score.
`TTAGGTATCCGTTTCCTTTAGTGCTAG` — result for “fitted relative affinity”: 7.11 z-score.
`GAGGATATCAGTTTCGAGACGTGCTAG`: “fitted relative affinity” 3.07 z-score.
`TTAGGTCTCGGTCTCGGTTCGTGCTAG`: “fitted relative affinity” 1.43 z-score.
`TTAGGTTTGCTTCTCCTTTAGTGCTAG`: “fitted relative affinity” 1.42 z-score.
Under “fitted relative affinity”, `TTATGTTTCGGGTATCGGTTAGTGCTA` is recorded as 3.72 z-score.

Study 4
Target: FOSL1, bZIP domain (human)
Method: DHFR protein complementation
Matrix: yeast
Notes: single substitutions, most at no-binding floor
Relative to: wild-type JUN-FOS pair
Reading: higher = stronger binding
Parent: JUN, bZIP domain (human); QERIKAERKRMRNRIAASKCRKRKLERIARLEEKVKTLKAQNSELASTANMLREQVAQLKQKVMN; partner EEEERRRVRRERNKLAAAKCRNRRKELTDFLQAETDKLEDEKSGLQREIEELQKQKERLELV
The binding fitness of `A49Y` is reported as -0.894 natural log.
`Q55N` gave a binding fitness of -0.955 natural log.
The binding fitness of `R30F` is reported as -0.288 natural log.
`L31F` has a binding fitness of -0.732 natural log.
`R30T` has a binding fitness of -0.133 natural log.
The binding fitness of `N42L` is reported as -0.536 natural log.
`L31D` gave a binding fitness of -1.37 natural log.
With `R30W` the binding fitness was -0.353 natural log.
With `N42H` the binding fitness was -1.25 natural log.
`N42P` has a binding fitness of -1.42 natural log.
`A49M` gave a binding fitness of -0.697 natural log.
`T37F` gave a binding fitness of -0.43 natural log.
`V56D` gave a binding fitness of -1.54 natural log.
With `L52Q` the binding fitness was -1.53 natural log.

Study 5
Target: ABI1, truncated, D143A, DHFR fusion (Arabidopsis thaliana)
Method: DHFR PCA, deep sequencing
Matrix: yeast
Notes: methotrexate growth selection, single substitutions
Together with: (+)-ABA 710 µM
Relative to: wild-type fitted maximum
Reading: higher = stronger binding
Parent: PYL1, truncated, DHFR fusion (Arabidopsis thaliana); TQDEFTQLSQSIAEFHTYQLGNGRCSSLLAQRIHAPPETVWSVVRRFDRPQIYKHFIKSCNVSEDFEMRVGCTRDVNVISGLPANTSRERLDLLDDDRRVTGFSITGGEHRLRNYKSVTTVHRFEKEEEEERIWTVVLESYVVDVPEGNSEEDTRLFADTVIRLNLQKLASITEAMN; partner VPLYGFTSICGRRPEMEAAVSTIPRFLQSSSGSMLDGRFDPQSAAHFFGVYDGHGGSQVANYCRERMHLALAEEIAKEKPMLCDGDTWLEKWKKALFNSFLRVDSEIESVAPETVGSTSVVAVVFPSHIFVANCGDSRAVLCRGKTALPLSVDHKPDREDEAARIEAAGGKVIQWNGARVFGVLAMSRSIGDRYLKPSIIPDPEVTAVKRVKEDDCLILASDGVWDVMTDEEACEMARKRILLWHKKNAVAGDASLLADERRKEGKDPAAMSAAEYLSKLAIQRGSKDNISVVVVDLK
`R69V`: “relative binding score” 100%.
Under “relative binding score”, `D48Y` is recorded as 57.4%.
`C60N`: “relative binding score” 38.3%.
`L28R` — result for “relative binding score”: 96%.
Under “relative binding score”, `E67K` is recorded as 99.8%.
`H122V` — result for “relative binding score”: 70.4%.
`P146S`: “relative binding score” 81.4%.
`P83R`: “relative binding score” 1.97%.
For `T6L`, “relative binding score” read 106%.
`V40E`: “relative binding score” -26.1%.
`R46C`: “relative binding score” 101%.
`R163G`: “relative binding score” 91.2%.

Study 6
Target: RNA binding protein fox-1 homolog 2, RRM domain, GST-SBP tag (RBFOX2, Homo sapiens, UniProt O43251-10, residues 100-194)
Method: RNA Bind-n-Seq
Form: RNA
Matrix: in vitro
Tested at: 365 nM
Notes: natural RNA segment, single round, ends assumed
Relative to: no-protein control
Reading: higher = stronger binding
All sequences stand within: GGGAGUUCUACAGUCCGACGAUC … UGGAAUUCUCGGGUGCCAA
Construct (chain): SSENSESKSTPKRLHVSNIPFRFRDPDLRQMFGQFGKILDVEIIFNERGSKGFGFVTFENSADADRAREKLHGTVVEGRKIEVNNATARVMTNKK
`GCGCCCCCAAACACACACAACAACAGAGGUUACCCUGUUCUGUCUACUCUACAGUGACUACCUGUGGGCCAGGCCAUCUAAACUGAGAGGGGGAAAGAUUCUACUUCAAA`: “RBNS enrichment (R)” 0.268.
`AGGUUUAAAGUAUUUAAAAUAUAGUUACCUAAUUGUAAAUAGGCUGUUAACCAAAAGAGCUUCCCCUCCCCCAGUUUUCUUUUAUGACCACUGAUGACUGCGGCUGUCUC`: “RBNS enrichment (R)” 0.368.
Under “RBNS enrichment (R)”, `GUGCUCAGUCAAGUGAUGGCUCCCUGCCCUUCUGUGCUCCCAGCCUGCCUCCCCCAGGGCAGGUUGGAGCCCUCAGCCCUGGCUUCUGCUCUCAGCCAGCACCACUGCCC` is recorded as 0.644.
Under “RBNS enrichment (R)”, `GCAUCUAUUUUCCAUAUAGUCAUCAAGAGACCAUUUUAUAAAACAUGGUAAGACCCUUUUUAAAACAAACUCCAGGCCCUUGGUUGCGGGUCGCUGGGUUAUUGGGGCAG` is recorded as 0.906.
`CAUUUCAUACAACAGAAACCAGAAAAGCAAUACUGUUUCCAUUUUAAGGAUAUGAUUAAUAUUAUUAAUAUAAUAAUGAUGAUGAUGAUGAUGAAAACUAAGGAUUUUUC`: “RBNS enrichment (R)” 0.698.
`AGAAGAAGGAAAAGAAGAAGUGCUUUUCAAAUCUUUCAAAGGGCUACAUGUAACCAUCUGGAAUGACCACAUCUACACCCUCCCAGACUCCGUCCUUUCAUUUCAACAUA` — result for “RBNS enrichment (R)”: 0.423.
`AGCCCUUUCCAGCACUGUUGGUCUGAUGAACAAGGUUGUUUUACCUUAUUUUCUCUUGGAACAUAUCUGAAAACCUUCCCCACAAAUAACUUGUCACACCUUUUGUUUCA`: “RBNS enrichment (R)” 0.214.
Under “RBNS enrichment (R)”, `ACCUGCUGGAAGCUGCCAGCUGCCCGGCUGGCAAUGGUGUGAGUGUCUUGGCCCUGUCCCUGCCCUGGGGUCCAGCAGGUCAUCCCUCCCUUCUUCUCUCUCCUUUGGCG` is recorded as 0.556.
For `UUACUCCAGCUAACGCUUUGAUUCCAACACUAGCAUUUGUCACGUUAGGACGAACUGAAACGGUACAAACUGGUUAACACUACAGCGCCUUUUGCACAAAUGCUUUAGAU`, “RBNS enrichment (R)” read 0.299.
`AUUACCUUCCUAGUGGGAACUUUUUCUACUUUACCUACAAGUUCUAUAUAUGUAGAAAUGAAUAAAUAUAUAUUUAAGUACAGUUUUCAUGAGGAAGUUUUAAAAGACCA`: “RBNS enrichment (R)” 0.481.
Under “RBNS enrichment (R)”, `AGCAAGGAGCAGGUAAGUGAGCAGUUAUGGACAGCACUUUCCAUGUGGUGCUUCCGACCCUGGCUGUCAGAGUGAAAUGUAAAGUCAGGGCUCUGUACAGUUUUGCCAUU` is recorded as 3.23.
`AGCAAUUGUGGGUUUUGAGCUCCAUAUACUCUUAGCAAGUAAGGGGGCGUCUUGCCCCUAUAUAUCAUCUUCCCGGAUUCCACUCCCUGUUGUGGGAAUCGCGCCCACCC`: “RBNS enrichment (R)” 0.453.

A few entries again (study 1):
`D10A` — result for “normalised enrichment score”: 0.143.
`V1A` — result for “normalised enrichment score”: -0.016.
`R5K`: “normalised enrichment score” -0.178.
`R4A` — result for “normalised enrichment score”: 0.0514.
`E11A`: “normalised enrichment score” 0.313.
